# Measured values from different studies.
# Numbered parts are unrelated; each lists some results of a single study. “And” joins repeats or separate records; there may be more than shown.
# Chain of UniProt P22607 (whole entry, unmodified, looked up): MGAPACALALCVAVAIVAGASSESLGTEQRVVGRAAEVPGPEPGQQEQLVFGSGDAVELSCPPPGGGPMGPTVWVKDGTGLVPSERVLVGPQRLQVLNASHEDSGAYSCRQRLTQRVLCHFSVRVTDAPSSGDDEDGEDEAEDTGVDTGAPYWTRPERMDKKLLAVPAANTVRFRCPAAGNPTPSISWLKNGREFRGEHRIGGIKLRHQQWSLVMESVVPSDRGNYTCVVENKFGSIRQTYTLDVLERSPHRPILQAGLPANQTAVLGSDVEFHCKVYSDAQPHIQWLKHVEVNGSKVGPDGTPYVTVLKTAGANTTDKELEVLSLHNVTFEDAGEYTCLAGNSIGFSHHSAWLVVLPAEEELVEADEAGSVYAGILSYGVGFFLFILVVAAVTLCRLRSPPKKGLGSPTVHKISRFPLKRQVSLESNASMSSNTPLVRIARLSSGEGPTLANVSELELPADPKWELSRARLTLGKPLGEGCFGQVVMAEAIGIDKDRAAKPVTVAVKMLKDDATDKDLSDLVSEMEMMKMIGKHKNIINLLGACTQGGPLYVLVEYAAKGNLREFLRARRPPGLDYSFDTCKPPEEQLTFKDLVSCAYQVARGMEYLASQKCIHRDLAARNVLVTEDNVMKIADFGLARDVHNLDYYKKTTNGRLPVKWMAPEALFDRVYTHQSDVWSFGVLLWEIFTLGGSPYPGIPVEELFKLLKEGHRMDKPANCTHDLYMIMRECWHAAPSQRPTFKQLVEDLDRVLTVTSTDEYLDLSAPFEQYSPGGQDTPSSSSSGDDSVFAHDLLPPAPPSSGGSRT
# Chain of UniProt P10721 (whole entry, looked up): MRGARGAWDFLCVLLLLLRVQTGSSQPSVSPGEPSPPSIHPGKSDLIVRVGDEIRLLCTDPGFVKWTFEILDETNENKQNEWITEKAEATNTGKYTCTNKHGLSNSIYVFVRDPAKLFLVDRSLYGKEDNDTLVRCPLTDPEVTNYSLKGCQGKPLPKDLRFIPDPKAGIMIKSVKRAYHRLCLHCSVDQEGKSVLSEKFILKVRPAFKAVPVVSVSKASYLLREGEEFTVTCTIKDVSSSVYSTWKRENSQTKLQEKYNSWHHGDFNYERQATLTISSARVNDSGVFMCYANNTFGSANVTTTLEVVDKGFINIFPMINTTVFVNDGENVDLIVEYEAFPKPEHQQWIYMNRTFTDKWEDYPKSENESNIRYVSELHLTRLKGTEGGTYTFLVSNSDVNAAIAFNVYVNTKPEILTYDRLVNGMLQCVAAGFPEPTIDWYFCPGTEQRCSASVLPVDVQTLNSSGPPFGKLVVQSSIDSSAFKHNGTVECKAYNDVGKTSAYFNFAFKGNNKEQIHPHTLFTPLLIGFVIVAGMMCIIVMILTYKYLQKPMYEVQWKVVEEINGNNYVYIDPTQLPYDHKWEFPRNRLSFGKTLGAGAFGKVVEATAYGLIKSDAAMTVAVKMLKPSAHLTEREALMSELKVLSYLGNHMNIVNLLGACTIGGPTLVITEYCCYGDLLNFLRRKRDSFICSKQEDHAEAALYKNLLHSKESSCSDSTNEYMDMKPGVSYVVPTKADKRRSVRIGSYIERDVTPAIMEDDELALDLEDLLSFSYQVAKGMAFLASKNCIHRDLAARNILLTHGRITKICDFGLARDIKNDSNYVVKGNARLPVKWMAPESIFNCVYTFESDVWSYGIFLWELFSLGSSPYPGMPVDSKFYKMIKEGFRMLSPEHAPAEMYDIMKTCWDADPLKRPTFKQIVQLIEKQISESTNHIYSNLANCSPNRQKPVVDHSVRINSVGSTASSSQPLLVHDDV
# Chain of UniProt O14730 (whole entry, looked up): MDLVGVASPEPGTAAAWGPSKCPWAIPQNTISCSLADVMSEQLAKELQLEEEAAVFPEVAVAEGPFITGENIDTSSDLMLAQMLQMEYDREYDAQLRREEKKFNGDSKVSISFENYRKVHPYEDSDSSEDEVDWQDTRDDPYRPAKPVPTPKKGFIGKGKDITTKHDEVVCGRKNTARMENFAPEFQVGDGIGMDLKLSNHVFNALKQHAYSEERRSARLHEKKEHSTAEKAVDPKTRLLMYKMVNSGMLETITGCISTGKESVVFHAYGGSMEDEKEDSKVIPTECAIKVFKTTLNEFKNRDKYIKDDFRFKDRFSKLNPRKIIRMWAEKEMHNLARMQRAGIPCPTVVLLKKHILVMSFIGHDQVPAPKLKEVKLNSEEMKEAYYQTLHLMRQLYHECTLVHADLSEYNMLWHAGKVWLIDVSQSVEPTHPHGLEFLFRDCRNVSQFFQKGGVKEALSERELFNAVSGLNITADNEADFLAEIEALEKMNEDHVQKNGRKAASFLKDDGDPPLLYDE
# Chain of UniProt Q9Y572 (whole entry, looked up): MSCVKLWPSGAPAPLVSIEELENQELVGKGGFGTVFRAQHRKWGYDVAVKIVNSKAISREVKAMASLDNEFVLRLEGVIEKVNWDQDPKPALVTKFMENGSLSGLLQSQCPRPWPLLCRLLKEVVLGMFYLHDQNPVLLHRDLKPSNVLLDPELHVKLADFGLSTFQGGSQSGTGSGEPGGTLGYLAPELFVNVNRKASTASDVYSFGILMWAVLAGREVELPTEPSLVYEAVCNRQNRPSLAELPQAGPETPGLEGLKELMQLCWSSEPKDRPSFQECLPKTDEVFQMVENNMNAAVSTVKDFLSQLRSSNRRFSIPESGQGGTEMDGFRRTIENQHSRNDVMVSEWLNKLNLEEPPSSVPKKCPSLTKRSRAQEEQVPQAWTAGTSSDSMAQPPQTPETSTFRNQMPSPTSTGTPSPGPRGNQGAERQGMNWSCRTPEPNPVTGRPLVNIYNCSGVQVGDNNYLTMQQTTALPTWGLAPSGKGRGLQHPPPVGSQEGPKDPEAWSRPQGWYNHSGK
# Chain of UniProt O14757 (whole entry, looked up): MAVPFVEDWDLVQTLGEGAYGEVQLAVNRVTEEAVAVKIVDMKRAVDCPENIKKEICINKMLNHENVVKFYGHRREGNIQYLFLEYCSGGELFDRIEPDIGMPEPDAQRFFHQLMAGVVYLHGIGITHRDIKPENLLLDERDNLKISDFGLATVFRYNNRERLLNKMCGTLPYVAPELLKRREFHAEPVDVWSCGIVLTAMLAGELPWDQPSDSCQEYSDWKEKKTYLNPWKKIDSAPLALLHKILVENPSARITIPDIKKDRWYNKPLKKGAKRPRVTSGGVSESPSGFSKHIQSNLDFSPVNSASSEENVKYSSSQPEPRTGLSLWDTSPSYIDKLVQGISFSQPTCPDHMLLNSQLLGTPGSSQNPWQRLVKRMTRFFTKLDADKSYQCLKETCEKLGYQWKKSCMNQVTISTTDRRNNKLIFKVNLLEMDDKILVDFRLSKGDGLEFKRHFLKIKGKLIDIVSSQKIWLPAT

# Series 1
# Structure (SMILES): C[C@H](c1cccc(C#N)c1)n1cc(Cl)cc(C(N)=O)c1=N
# Technique: competition with immobilised ligand
# Tested at: 1 µM
target,read-out,remaining binding
"Tyrosine-protein kinase ABL1, phosphorylated (ABL1, Homo sapiens, UniProt P00519, M351T)",cell-free assay,100%
"Mitotic checkpoint serine/threonine-protein kinase BUB1 (BUB1, Homo sapiens, UniProt O43683)",cell-free assay,75%
"Beta-adrenergic receptor kinase 1 (GRK2, Homo sapiens, UniProt P25098)",cell-free assay,81%
"Cyclin-dependent kinase 4 (CDK4, Homo sapiens, UniProt P11802)",cell-free assay,88%
"Serine/threonine-protein kinase RIO3 (RIOK3, Homo sapiens, UniProt O14730)",cell-free assay,100%
"Mitogen-activated protein kinase kinase kinase 6 (MAP3K6, Homo sapiens, UniProt O95382)",cell-free assay,91%
"Transient receptor potential cation channel subfamily M member 6 (TRPM6, Homo sapiens, UniProt Q9BX84)",cell-free assay,83%
"Mast/stem cell growth factor receptor Kit (KIT, Homo sapiens, UniProt P10721)",cell-free assay,87%
"Cyclin-dependent kinase 13 (CDK13, Homo sapiens, UniProt Q14004)",cell-free assay,100%
"Receptor-type tyrosine-protein kinase FLT3 (FLT3, Homo sapiens, UniProt P36888, N841I)",cell-free assay,97%
"Membrane-associated tyrosine- and threonine-specific cdc2-inhibitory kinase (PKMYT1, Homo sapiens, UniProt Q99640)",cell-free assay,100%
"Tyrosine-protein kinase ABL1, phosphorylated (ABL1, Homo sapiens, UniProt P00519, E255K)",binding,87%
"Mitogen-activated protein kinase kinase kinase kinase 3 (MAP4K3, Homo sapiens, UniProt Q8IVH8)",cell-free assay,76%
"Fibroblast growth factor receptor 3 (FGFR3, Homo sapiens, UniProt P22607, G697C)",cell-free assay,100%
"Serine/threonine-protein kinase Chk1 (CHEK1, Homo sapiens, UniProt O14757)",cell-free assay,100%
"Serine/threonine-protein kinase STK11 (STK11, Homo sapiens, UniProt Q15831)",cell-free assay,96%
"LIM domain kinase 1 (LIMK1, Homo sapiens, UniProt P53667)",cell-free assay,88%

# Series 2
# Structure (SMILES): C=CCc1ccc(O)c(-c2ccc(O)c(CC=C)c2)c1
# Read-out: chloride current
# ANO1 del476-501/F628A: Anoctamin-1 (ANO1, Homo sapiens, UniProt Q5XXA6, del476-501/F628A)
# Chain of UniProt Q5XXA6 (whole entry, unmodified, looked up): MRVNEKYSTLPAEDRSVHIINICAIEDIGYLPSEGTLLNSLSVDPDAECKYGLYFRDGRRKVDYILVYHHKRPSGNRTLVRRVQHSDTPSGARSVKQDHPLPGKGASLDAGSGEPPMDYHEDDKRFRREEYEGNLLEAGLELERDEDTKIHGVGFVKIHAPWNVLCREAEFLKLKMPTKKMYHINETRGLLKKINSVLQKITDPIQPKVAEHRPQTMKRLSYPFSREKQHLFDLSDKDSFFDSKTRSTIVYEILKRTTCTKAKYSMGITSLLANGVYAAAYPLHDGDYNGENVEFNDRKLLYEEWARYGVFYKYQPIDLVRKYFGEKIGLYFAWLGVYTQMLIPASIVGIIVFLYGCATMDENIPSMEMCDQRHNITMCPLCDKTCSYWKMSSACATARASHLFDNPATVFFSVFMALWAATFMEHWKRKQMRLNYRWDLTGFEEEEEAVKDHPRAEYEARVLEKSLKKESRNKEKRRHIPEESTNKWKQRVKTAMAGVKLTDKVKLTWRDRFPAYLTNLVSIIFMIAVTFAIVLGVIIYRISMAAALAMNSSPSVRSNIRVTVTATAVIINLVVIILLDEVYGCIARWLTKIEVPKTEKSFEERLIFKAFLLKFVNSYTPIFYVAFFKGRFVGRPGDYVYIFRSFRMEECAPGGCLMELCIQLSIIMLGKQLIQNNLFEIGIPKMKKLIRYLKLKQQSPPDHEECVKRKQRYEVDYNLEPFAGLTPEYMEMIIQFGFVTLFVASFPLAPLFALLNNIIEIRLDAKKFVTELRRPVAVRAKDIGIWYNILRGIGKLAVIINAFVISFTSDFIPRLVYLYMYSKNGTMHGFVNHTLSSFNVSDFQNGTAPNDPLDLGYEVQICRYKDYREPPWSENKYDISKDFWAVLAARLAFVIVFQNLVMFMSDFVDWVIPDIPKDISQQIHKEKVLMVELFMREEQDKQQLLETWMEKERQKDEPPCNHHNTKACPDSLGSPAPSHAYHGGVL
target,mode,technique,tested at,notes,added,normalized current
ANO1 del476-501/F628A,,whole-cell voltage clamp,100 µM,I-V at -100 mV,4 µM Ca2+,-0.272
"Anoctamin-1 (ANO1, Homo sapiens, UniProt Q5XXA6, del476-501/E649A/R541A)",inhibitor,inside-out patch clamp,10 µM,R515A/E623A mutant at -80 mV,,-0.362
ANO1 del476-501/F628A,,whole-cell voltage clamp,3 µM,I-V at -40 mV,4 µM Ca2+,-0.291

# Series 3
# Species: mouse
# Sample: microsomes or S9
# Tested at: 2 µM
# Time: 0.5 h
Compound,remaining compound [%]
CC1(C)C=C(N2CCCC2=O)c2cc(C#N)ccc2O1,60.1
Cc1cc(Br)cc(C(=O)c2c(C(C)C)c(=O)[nH]c(=O)n2Cc2cc(F)nc(F)c2)c1,63
Cc1nnc(SCC(=O)Nc2nc[nH]n2)s1,55
CC(=O)/C(=C1\NC(C)(C)Cc2cc(C)c(C)cc21)c1ccccc1,1.18
COC(=O)c1cccnc1C1=NC(C)(C(C)C)C(=O)N1 (stereo not shown),59.2
CCOC(=O)N1CCN(C(=O)c2ccc(-c3ccc(Oc4ccccc4)cc3)nc2)CC1,0.737

# Series 4
# Target: Beta-1 adrenergic receptor (ADRB1, Homo sapiens, UniProt P08588)
# Chain of UniProt P08588 (whole entry, looked up): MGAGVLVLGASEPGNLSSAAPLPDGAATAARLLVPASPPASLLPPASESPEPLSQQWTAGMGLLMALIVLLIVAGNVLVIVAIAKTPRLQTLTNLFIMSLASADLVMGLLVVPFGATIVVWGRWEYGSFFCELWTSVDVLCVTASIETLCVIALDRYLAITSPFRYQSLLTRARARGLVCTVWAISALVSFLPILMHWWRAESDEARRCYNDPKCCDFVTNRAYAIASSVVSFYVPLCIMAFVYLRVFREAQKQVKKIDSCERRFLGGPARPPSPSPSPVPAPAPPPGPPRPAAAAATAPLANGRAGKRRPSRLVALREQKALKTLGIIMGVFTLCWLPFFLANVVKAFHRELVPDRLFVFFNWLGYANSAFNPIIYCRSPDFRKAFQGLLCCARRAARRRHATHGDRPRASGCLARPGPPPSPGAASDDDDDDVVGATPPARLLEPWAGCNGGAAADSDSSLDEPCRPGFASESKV
# Mode: antagonist
SMILES,IC50
Cc1ccc(C(=O)N2CCN(c3cccc(Cl)c3)CC2)s1,≥ 100 µM
Cc1noc2c(-c3cccnc3)cc(-c3cccc(C(F)(F)F)c3)nc12,≥ 100 µM
Cc1cccc(OCc2cc(=O)n3cccc(C)c3n2)c1C,≥ 100 µM
CCC(CC)C(=O)Nc1ccc([C@@H](O)[C@H]2COCC(=O)N2)cc1,≥ 100 µM
Cc1nn(C)c2nc(NCCCC3CCOC3)sc12 (stereo not shown),≥ 100 µM

# Other studies, line by line
Structure (SMILES),tested on,assay,system,conditions,scale,endpoint,value
N#Cc1c(Oc2ccc(F)c(NC(=O)Cc3cccc(C(F)(F)F)c3)c2)ccc2nc(NC(=O)C3CC3)sc12,"Receptor-interacting serine/threonine-protein kinase 3 (RIPK3, Homo sapiens, UniProt Q9Y572)","kinase activity, inhibitor, ADP-Glo",,"15.62 nM, 1 h",,inhibition,33.2%
CC1=C(/C=C/C(C)=C/C=C/C(C)=C/C(=O)O)C(C)(C)CCC1,HuT78,item: CCR4,,"concentration not given, unit not given",baseline: vehicle,mRNA level,0.724 and 0.854 and 0.533
CCCN1C(=O)[C@H](CC(C)C)NC(=O)[C@@H](N(C)C(=O)[C@H](CC2CCC2)NC(=O)[C@@H]2C[C@@H](F)CN2C(=O)[C@@](C)(O)C(F)(F)F)CCCCNC(=O)C2(CC2)NC(=O)[C@@H]1Cc1cc(Cl)ccc1Cl,,,mouse NCI-H1048 xenograft,"iv, 100 mg/kg once daily, day 0",,tumour volume,250 mm3 and 280 mm3 and 312 mm3 and 233 mm3 and 182 mm3 and 193 mm3 and 237 mm3 and 271 mm3

# A few entries again (series 1):
target,read-out,remaining binding
"Membrane-associated tyrosine- and threonine-specific cdc2-inhibitory kinase (PKMYT1, Homo sapiens, UniProt Q99640)",cell-free assay,100%
"Tyrosine-protein kinase ABL1, phosphorylated (ABL1, Homo sapiens, UniProt P00519, E255K)",binding,87%
"Mitogen-activated protein kinase kinase kinase kinase 3 (MAP4K3, Homo sapiens, UniProt Q8IVH8)",cell-free assay,76%
"Fibroblast growth factor receptor 3 (FGFR3, Homo sapiens, UniProt P22607, G697C)",cell-free assay,100%
"Serine/threonine-protein kinase Chk1 (CHEK1, Homo sapiens, UniProt O14757)",cell-free assay,100%
"Serine/threonine-protein kinase STK11 (STK11, Homo sapiens, UniProt Q15831)",cell-free assay,96%
